{"data": "Literature values that unrelated publications cite", "note": "Each line is one published result; not all experiments were run side by side. ± marks the error that the study gave."}
{"SMILES": "Cc1cc(C)cc(OCC2CNC(=O)O2)c1 (stereo not drawn)", "system": "water", "measurement": "solubility", "result": "< 1000 µg/mL"}
{"SMILES": "CC(C)(O)c1ccccc1CC[C@@H](SCC1(CC(=O)O)CC1)c1cccc(/C=C/c2ccc3ccc(Cl)cc3n2)c1", "system": "plasma", "setting": "concentration not given, total, steady state", "measurement": "Cmax", "result": "890 nM"}
{"SMILES": "Cc1c(F)c(N2CCNC(C)C2)cc2c1c(=O)c(C(=O)O)cn2C1CC1 (stereo not drawn)", "system": "human", "measurement": "free Cmax", "result": "4150 nM"}
{"SMILES": "Nc1nc(=O)n(C2CSC(CO)O2)cc1F (stereo not drawn)", "system": "monkey", "setting": "33.3 mg/kg", "measurement": "bioavailability", "result": "73%"}
{"SMILES": "Cc1ccc(C(=O)c2cc(O)c(O)c([N+](=O)[O-])c2)cc1", "system": "water", "measurement": "solubility", "result": "< 1000 µg/mL"}
{"SMILES": "C=CC(=O)NC1CCN(c2ncc3ncnc(Nc4ccc(Oc5ccc6c(c5)ncn6C)c(C)c4)c3n2)CC1", "system": "human", "setting": "oral microdose tablet, dose-normalised geometric mean", "how to read": "baseline: intravenous", "measurement": "absolute bioavailability", "result": "76.2%"}
{"SMILES": "Cc1cc(-c2nccc3c2ccn3CC(=O)Nc2ccc(-c3cnccn3)cn2)ccn1", "system": "dog", "setting": "30 mg/kg/day, 1 month, repeat dosing", "measurement": "AUC(0-24 h), total", "result": "9.9 µM·h"}
{"SMILES": "CN(C)C(=N)N=C(N)N", "system": "healthy human", "measurement": "blood-to-plasma ratio", "result": 1}
{"SMILES": "Cc1c(OCC(F)(F)F)ccnc1C[S+]([O-])c1nc2ccccc2[nH]1 (stereo not drawn)", "system": "supercritical CO2", "measurement": "crossover pressure", "result": "190 to 210 bar"}
{"SMILES": "CC(C)C[C@H](NC(=O)[C@H](Cc1ccccc1)NC(=O)c1cnccn1)B(O)O", "system": "human", "setting": "concentration not given, clinical", "measurement": "diarrhoea incidence", "result": "51%"}
{"SMILES": "O=C1NC(=O)C(c2ccccc2)(c2ccccc2)N1", "system": "FaSSIF", "setting": "literature value", "measurement": "solubility", "result": "39.6 µg/mL"}
{"SMILES": "COC(=O)N[C@@H](C)CNc1nccc(-c2cn(C(C)C)nc2-c2cc(Cl)cc(NS(C)(=O)=O)c2F)n1", "system": "human, urine", "setting": "dose not given", "measurement": "unchanged drug excreted", "result": "2%"}
{"SMILES": "C[Si](C)(C)O[Si](C)(C)C", "system": "dry 1-octanol/air", "setting": "25 °C", "measurement": "log KOA", "result": 2.98}
{"SMILES": "O=C1NC(=O)/C(=C/c2ccc3ncnc(N4CCCCC4)c3n2)S1", "system": "mouse", "setting": "intravenous", "measurement": "half-life", "result": "1.2 h"}
{"SMILES": "N#C[C@@]1(c2ccc3c(N)ncnn23)O[C@H](CO)[C@@H](O)[C@H]1O", "system": "dog, plasma", "setting": "intravenous, 2 mg/kg, 48 h, solution", "measurement": "plasma concentration", "result": "1.67 ng/mL"}
{"SMILES": "O=C(O)c1cc(-c2ccc(F)cc2F)ccc1O", "system": "plasma", "setting": "concentration not given, total, steady state", "measurement": "Cmax", "result": "759000 nM"}
{"SMILES": "Nc1nc(NC2CC2)c2ncn([C@H]3C=C[C@@H](CO)C3)c2n1", "system": "human", "setting": "300 mg twice daily", "measurement": "oral bioavailability", "result": "83%"}
{"SMILES": "CN(C)C(=O)c1cc2cnc(Nc3ccc(N4CCNCC4)cn3)nc2n1C1CCCC1", "test": "refers to: diarrhea", "system": "advanced solid tumour or lymphoma patients", "setting": "dose not given, continuous dosing", "how to read": "baseline: patients", "measurement": "adverse event incidence", "result": "31.6%"}
{"SMILES": "CC(=O)O[C@H]1C(=O)[C@@]2(C)[C@H]([C@H](OC(=O)c3ccccc3)[C@]3(O)C[C@H](OC(=O)[C@H](O)[C@@H](NC(=O)c4ccccc4)c4ccccc4)C(C)=C1C3(C)C)[C@]1(OC(C)=O)CO[C@@H]1C[C@@H]2O", "system": "advanced esophageal cancer patients", "setting": "80 mg/m2 weekly, monotherapy", "measurement": "grade 3 peripheral neuropathy incidence", "result": "3%"}
{"SMILES": "Cc1nn(C)cc1S(=O)(=O)NC(=O)c1ccc(-n2ccc(OCC(C)(C)C(F)(F)F)n2)nc1N1C[C@@H](C)CC1(C)C", "system": "human", "measurement": "blood-to-plasma ratio", "result": 0.55}
{"SMILES": "COc1cc2c(Oc3ccc4[nH]c(C)cc4c3F)ccnc2cc1OCC1(N)CC1", "system": "human", "setting": "12 mg single dose", "measurement": "Tmax", "result": "7.3 ± 3.3 h"}
{"SMILES": "CNC(=O)c1c(C)oc2cc(Oc3ncnc4cc(OC)c(OC)cc34)ccc12", "system": "healthy human subjects", "setting": "dose not given, added: rabeprazole", "measurement": "exposure change", "result": "no effect"}
{"SMILES": "O=C1Nc2ccc(Cl)cc2[C@@](C#CC2CC2)(C(F)(F)F)O1", "system": "human", "setting": "dose not given", "measurement": "volume of distribution", "result": "4 to 7 L/kg"}
{"SMILES": "C=CC(=O)N1CCC([C@@H]2CCNc3c(C(N)=O)c(-c4ccc(Oc5ccccc5)cc4)nn32)CC1", "system": "human", "setting": "320 mg once daily", "measurement": "AUC(0-last)", "result": "2700 ng·h/mL"}
{"SMILES": "Cn1c(Cn2ccc(C(F)(F)F)c(Oc3cc(Cl)cc(C#N)c3)c2=O)n[nH]c1=O", "system": "human", "setting": "dose not given, moderate induction, added: efavirenz", "measurement": "exposure reduction", "result": "50 to 60%"}
{"SMILES": "CCc1cc2c(cc1CC)CC(NC[C@H](O)c1ccc(O)c3[nH]c(=O)ccc13)C2", "system": "human, plasma", "setting": "inhaled, dose not given", "measurement": "Clast", "result": "0.036 nM"}
{"SMILES": "Cc1cn([C@H]2C[C@H](N=[N+]=[N-])[C@@H](CO)O2)c(=O)[nH]c1=O", "system": "mouse", "setting": "60 mg/kg", "measurement": "oral bioavailability", "result": "92%"}
{"SMILES": "CNCc1cc(-c2ccccc2F)n(S(=O)(=O)c2cccnc2)c1", "system": "human, plasma", "setting": "15 mg single dose, observed clinical data", "measurement": "Tmax", "result": "1.5 h"}
{"SMILES": "CC[C@H](C)C(=O)O[C@H]1C[C@H](O)C=C2C=C[C@H](C)[C@H](CC[C@@H](O)C[C@@H](O)CC(=O)O)[C@H]21", "system": "plasma", "measurement": "free Cmax", "result": "60 nM"}
{"SMILES": "C#C[C@]1(OC(C)=O)CC[C@H]2[C@@H]3CCC4=CC(=NO)CC[C@@H]4[C@H]3CC[C@@]21CC (mixture of isomers)", "system": "human, fasted", "setting": "0.25 mg, single dose, reference formulation", "measurement": "Cmax, geometric mean", "result": "0.0472 ng/mL"}
{"SMILES": "CCOc1ccc(-c2nc3ccc(-c4nc5ccc(N6CCN(C)CC6)cc5[nH]4)cc3[nH]2)cc1", "system": "PBS", "setting": "2 µM, added: 30 µM hairpin DNA", "measurement": "fluorescence quantum yield", "result": "0.823 ± 0.004"}
{"SMILES": "CC(C)(CO)c1cc2cc(NC(=O)C3(c4ccc5c(c4)OC(F)(F)O5)CC3)c(F)cc2n1C[C@@H](O)CO", "system": "human", "measurement": "blood-to-plasma ratio", "result": 0.658}
{"SMILES": "Cc1cccc(Nc2ccccc2C(=O)O)c1C", "system": "plasma", "setting": "concentration not given, total, steady state", "measurement": "Cmax", "result": "82900 nM"}
{"SMILES": "COc1cc(N)c(Cl)cc1C(=O)NC1CCN(CCCOc2ccc(F)cc2)CC1OC (stereo not drawn)", "system": "human", "measurement": "free Cmax", "result": "9.81 nM"}
{"SMILES": "Oc1ccc(/C=C/c2cc(O)cc(O)c2)cc1", "system": "water", "measurement": "solubility", "result": "< 1000 µg/mL"}
{"SMILES": "COCCc1ccc(OC[C@@H](O)CNC(C)C)cc1", "system": "human", "setting": "oral, 100 mg single, enantiomer", "measurement": "AUCtau", "result": "258 ng·h/mL"}
{"SMILES": "FC(F)(F)c1ccc(CNc2ccc(Cc3c[nH]c4ncc(Cl)cc34)cn2)cn1", "system": "patients, plasma", "setting": "oral, 400 mg once daily, day 1, mean", "measurement": "AUC(0-24 h)", "result": "38100 ng·h/mL"}
{"SMILES": "CO[C@H]1/C=C/O[C@@]2(C)Oc3c(C)c(O)c4c(O)c(c(/C=N/N5CCN(C)CC5)c(O)c4c3C2=O)NC(=O)/C(C)=C\\C=C\\[C@H](C)[C@H](O)[C@@H](C)[C@@H](O)[C@@H](C)[C@H](OC(C)=O)[C@@H]1C", "system": "plasma", "measurement": "plasma fraction unbound", "result": 0.0434}
{"SMILES": "Nc1ccn([C@H]2CC[C@@H](CO)O2)c(=O)n1", "system": "mouse", "measurement": "oral bioavailability", "result": "30%"}
{"SMILES": "O=C(CCCCCCC(=O)Nc1ccccc1)NO", "system": "BALB/c nude mice", "setting": "oral, 50 mg/kg single", "measurement": "AUC(0-inf)", "result": "2.3 µM·h"}
{"SMILES": "CCCN1C[C@H](CSC)C[C@@H]2c3cccc4[nH]cc(c34)C[C@H]21", "system": "plasma", "measurement": "free Cmax", "result": "0.32 nM"}
{"SMILES": "CC(C)N(CCCCOCC(=O)NS(C)(=O)=O)c1cnc(-c2ccccc2)c(-c2ccccc2)n1", "system": "healthy human, feces", "how to read": "baseline: dose", "measurement": "fecal excretion", "result": "93%"}
{"SMILES": "Cc1ccccc1CN1C(=O)C2=C(CCN(Cc3ccccc3)C2)N2CCN=C12", "system": "human", "setting": "oral, 625 mg, fasted, single dose", "measurement": "Tmax", "result": "0.75 h"}
{"SMILES": "N#CCNC(=O)c1ccc(-c2ccnc(Nc3ccc(N4CCOCC4)cc3)n2)cc1", "system": "human", "setting": "oral, single dose, 14C-labelled", "measurement": "radioactivity recovered", "result": "~97%"}
{"SMILES": "COc1ccc(C[C@@H](C)[C@@H](C)Cc2ccc(OC)c(OC)c2)cc1OC", "system": "human", "setting": "intravenous, dose not given, all cohorts except 1500 mg", "measurement": "QTc interval change", "result": "< 10 ms"}
{"SMILES": "COc1ccc(C2CNC(=O)C2)cc1OC1CCCC1 (stereo not drawn)", "system": "water", "measurement": "solubility", "result": "< 1000 µg/mL"}
{"SMILES": "O=c1[nH]ncn1-c1ccc(N2CCN(c3ccc(OCC4COC(Cn5cncn5)(c5ccc(Cl)cc5Cl)O4)cc3)CC2)cc1 (stereo not drawn)", "measurement": "pKa (basic)", "result": 3.7}
{"SMILES": "N#CCNC(=O)c1ccc(-c2ccnc(Nc3ccc(N4CCOCC4)cc3)n2)cc1", "system": "severe renal impairment", "setting": "dose not given", "measurement": "AUC(0-inf) decrease", "result": "16%"}
{"SMILES": "O=C(O)[C@H]1/C(=C/CO)O[C@@H]2CC(=O)N21", "setting": "acidic conditions", "measurement": "aqueous stability", "result": "unstable"}
{"SMILES": "CCN(CC)CCNC(=O)c1c(C)[nH]c(/C=C2\\C(=O)Nc3ccc(F)cc32)c1C", "system": "supercritical CO2", "measurement": "crossover pressure", "result": "150 to 170 bar"}
{"SMILES": "COc1cc(N2CCC3(CCN(C)CC3)CC2)ccc1Nc1ncc(Cl)c(Nc2ccccc2P(C)(C)=O)n1", "system": "healthy human subjects", "measurement": "elimination half-life", "result": "28.6 h"}
{"SMILES": "C[C@@H](O)[C@H]1C(=O)N2C(C(=O)O)=C(S[C@@H]3CN[C@H](C(=O)N(C)C)C3)[C@H](C)[C@H]12", "test": "perpetrator, refers to: valproic acid", "system": "human", "setting": "dose not given", "how to read": "baseline: without compound", "measurement": "half-life reduction", "result": "80%"}
{"SMILES": "CN1CCC[C@@H]1CCO[C@](C)(c1ccccc1)c1ccc(Cl)cc1", "system": "human", "measurement": "free Cmax", "result": "0.15 nM"}
{"SMILES": "CCc1c2c(nc3ccc(OC(=O)N4CCC(N5CCCCC5)CC4)cc13)-c1cc3c(c(=O)n1C2)COC(=O)[C@]3(O)CC", "system": "water", "measurement": "solubility", "result": "< 1000 µg/mL"}
{"SMILES": "COc1cnc(-n2cnc(C)n2)c2c1c(C(=O)C(=O)N1CCN(C(=O)c3ccccc3)CC1)cn2COP(=O)(O)O", "system": "healthy human volunteers, faeces", "setting": "oral, 300 mg single dose", "how to read": "baseline: dose", "measurement": "fecal recovery of radioactivity", "result": "33%"}
{"SMILES": "Cc1ccc(Nc2nccc(N(C)c3ccc4c(C)n(C)nc4c3)n2)cc1S(N)(=O)=O.Cl", "system": "water", "measurement": "solubility", "result": "< 1000 µg/mL"}
{"SMILES": "CN[C@@H](C)C(=O)N[C@H]1CN(S(=O)(=O)c2cccc(S(=O)(=O)N3CC[C@H]4CC[C@@H](C(=O)NC(c5ccccc5)c5ccccc5)N4C(=O)[C@@H](NC(=O)[C@H](C)NC)C3)c2)CC[C@H]2CC[C@@H](C(=O)NC(c3ccccc3)c3ccccc3)N2C1=O", "system": "cynomolgus monkey, plasma", "setting": "dose not given", "measurement": "clearance", "result": "11.3 mL/min/kg"}
